Published values pooled from the literature.
Compare with care: the assays were run in different laboratories. Numbers after ± are the reported error.

CN1C(=O)[C@@H](NC(=O)c2nnc(Cc3ccccc3)[nH]2)COc2cccnc21 — participants with any serious TEAE (phase I single ascending dose; human, male and female; oral, 200 mg, fasted): 0%
C[C@@H](O)CCOC(=O)C[C@@H](C)O — heart rate (human; oral drink, dose not given, 60 min post dose, mean): 76 beats/min
Cc1cc(-c2nccc3c2ccn3CC(=O)Nc2ccc(-c3cnccn3)cn2)ccn1 — subjects with breath odour (human; 20 mg once daily, multiple ascending dose): 0%
C[C@@H]1CCO[C@H]2Cn3cc(C(=O)NCc4ccc(F)cc4F)c(=O)c(O)c3C(=O)N12 — trough concentration (C24) (human paediatric patients, weight sample B to under sample C kg, plasma; oral, 50 mg film-coated tablet, 24 h, steady state, geometric mean, population PK post-hoc, N 6): 567 ng/mL
COc1ccc(/C=N/NC(=O)Cn2c(-c3ccc(S(C)(=O)=O)cc3)nc3cc(C)ccc32)cc1 — ulcer number (rat, stomach; concentration not given, 4 h; baseline: indomethacin): 33.3%
COc1ccnc(C(=O)N[C@H]2COC(=O)[C@H](Cc3ccccc3)[C@@H](O)[C@H](C)OC2=O)c1O — DT50 (aerobic dark soil incubation; clay loam soil; 20 °C, persistence endpoint): 5.49 days
Cc1cc(NC2CCN(C(=O)OC3CCN(C(=O)/C=C/CN(C)C)C3)CC2)n2ncc(C(C)C)c2n1 (stereo not shown) — patients with adverse event (Phase I dose escalation CTCAE v4.0, item: Hypotension; patients with advanced solid tumours; dose not given, all dose schedules any grade): 6%
O=C(O)CCC(=O)O.[2H]C([2H])([2H])Oc1cc(C)c2[nH]ccc2c1CN1CC[C@@H](C2CC2)C[C@H]1c1ccc(C(=O)O)cc1 — TEAE proteinuria (healthy Chinese subjects; 200 mg, single ascending dose): 8.3%
CCc1nc(C(N)=O)c(Nc2ccc(N3CCC(N4CCN(C)CC4)CC3)c(OC)c2)nc1NC1CCOCC1 — Cmax (Japanese patients, plasma; oral, 40 mg, cycle 0 day -2, single dose, mean): 29.8 ng/mL
CNC(=O)c1ccc(-c2cnc3ncc(Cc4ccc5ncccc5c4)n3n2)cc1F — patients with adverse event (item: Constipation, all grades; gastric cancer patients; oral, 600 mg twice daily, expansion cohort, any causality): 33%
O=C(OC(C(F)(F)F)C(F)(F)F)N1CCN(Cc2cccc(Oc3ccccc3)c2)CC1 — k2 (PET blocking study; rhesus monkey, brain FCX; 0.3 mg/kg, compound pretreatment, added: [18F]T-401 tracer): 0.126 min⁻¹
N#Cc1ccc2c(c1)[C@H]1CCCN(C(=O)c3ccc4[nH]cnc4c3)[C@H]1C2 — DHEA-S (human females; 80 mg, end of trial): 8 µmol/L
C[C@H]1Oc2cc(cnc2N)-c2c(nn(C)c2C#N)CN(C)C(=O)c2ccc(F)cc21 — clearance (population PK; patients with mild hepatic impairment (NCI sample A), plasma; oral, 100 mg, mean, single dose): 143 mL/min
COc1cc(NC(=O)CCN2CCC(OC(=O)Nc3ccccc3-c3ccccc3)CC2)c(Cl)cc1CNC[C@H](O)c1ccc(O)c2[nH]c(=O)ccc12 — fraction unbound (equilibrium dialysis; rat, plasma): 0.0076
C=CCN1CC(=O)N2[C@@H](Cc3ccc(O)cc3F)C(=O)N(Cc3cccc(N4CC(N5CCN(CC)CC5)C4)n3)C[C@@H]2N1C(=O)NCc1ccccc1 — treatment-related diarrhoea (advanced solid tumour patients; oral, 30 mg twice daily, grade ≥3, dose-escalation): 0%
OC[C@H]1O[C@@H](c2ccc(Cl)c(Cc3ccc(O[C@H]4CCOC4)cc3)c2)[C@H](O)[C@@H](O)[C@@H]1O — change in LDL/HDL ratio (Japanese type 1 diabetes patients, blood; 25 mg, day 28; baseline: baseline): -0.03
CN[C@@H](C)C(=O)N[C@H]1CN(S(=O)(=O)c2cccc(S(=O)(=O)N3CC[C@H]4CC[C@@H](C(=O)NC(c5ccccc5)c5ccccc5)N4C(=O)[C@@H](NC(=O)[C@H](C)NC)C3)c2)CC[C@H]2CC[C@@H](C(=O)NC(c3ccccc3)c3ccccc3)N2C1=O — Vss (LC-MS/MS, noncompartmental; human, plasma; 30 mg, cycle 1 day 1): 23.4 ± 0.573 L
C[C@@H](Nc1cc(F)cc(F)c1)c1cc(C(=O)N(C)C)cc2c(=O)cc(N3CCOCC3)oc12 — any dose interruption (advanced solid tumour patients; oral, 30 mg twice daily, continuous monotherapy): 75%
COc1ccc2[nH]c([S+]([O-])Cc3ncc(C)c(OC)c3C)nc2c1 (stereo not shown) — AUC(0-inf) (healthy Chinese volunteers, plasma; oral, 20 mg, fed, CYP2C19 rapid metabolizers): 393 ± 250 ng·h/mL

Excerpt of the above:
OC[C@H]1O[C@@H](c2ccc(Cl)c(Cc3ccc(O[C@H]4CCOC4)cc3)c2)[C@H](O)[C@@H](O)[C@@H]1O — change in LDL/HDL ratio (Japanese type 1 diabetes patients, blood; 25 mg, day 28; baseline: baseline): -0.03
CN[C@@H](C)C(=O)N[C@H]1CN(S(=O)(=O)c2cccc(S(=O)(=O)N3CC[C@H]4CC[C@@H](C(=O)NC(c5ccccc5)c5ccccc5)N4C(=O)[C@@H](NC(=O)[C@H](C)NC)C3)c2)CC[C@H]2CC[C@@H](C(=O)NC(c3ccccc3)c3ccccc3)N2C1=O — Vss (LC-MS/MS, noncompartmental; human, plasma; 30 mg, cycle 1 day 1): 23.4 ± 0.573 L
